Published values gathered from unrelated publications.
Every numbered part comes from another study and shows a few of its results, in no order. Changes are numbered by the printed parent chain.

Series 1 — technique: RNA Bind-n-Seq; molecule type: RNA; matrix: in vitro; tested at: 200 nM; notes: whole 134-nt RNA, ends assumed; together with: 150 mM LiCl; reference: input library; direction: higher = stronger binding; quantity: log2 enrichment; all molecules: 7-deaza-guanosine replaces G
Target: Fragile X messenger ribonucleoprotein 1, C-terminal low-complexity region (Fmr1, Mus musculus, UniProt P35922)
Constant ends, left off below: GGGAGUUCUACAGUCCGACGAUC … UGGAAUUCUCGGGUGUCAAGG
GCAGGAAGUAAAAACAAAUGGAAAUGCUUCGGCUAGUGGCAGGGGUGGGGGUUGCUAAGGAAAGGGUGGGAUGGGAGUGGGUAAAGAGUU: 1.48
UCCUGUGCUACACAUCGUAUGUACCGAAUCGGGGAAAGGGGAAAGGGGAAAAAAAGGGGAAAGUAUUAUGUUACGCCGUUCGGAUCUGCA: 0.488
UCCUGUGCUACACAUCGUAUGUACCGAAUCGGGGAAAAAGGGGUUUGGGGAAAAAGGGGAAAGUAUUAUGUUACGCCGUUCGGAUCUGCA: -1.69
GCAGGAAAAAAAAACAAAUGGAAAUGCUUCGGAUAGUGGCAGGGGUGGGGGUUGCUAAGGAAAGGGUGGGAUGGGAGUGGGUAAAGAGUU: 1.67
UCCUGUGCUACACAUCGUAUGUACCGAAUCGGGGUUUGGGGUUUUUGGGGUUUUUGGGGAAAGUAUUAUGUUACGCCGUUCGGAUCUGCA: -0.715
AAGUCCUGUGCUACACAUCGUAUGUACCGAAUCGGGAAAAGGAAAAGGAAAAGGGGAAAGUAUUAUGUUACGCCGUUCGGAUCUGCACUU: -0.356
AAGUCCUGUGCUACACAUCGUAUGUACCGAAUCGGGUUUGGGAAAAAAAGGGAGGGAAAGUAUUAUGUUACGCCGUUCGGAUCUGCACUU: -0.808
UCCUCAAGUCCUGUGCUACACAUCGUAUGUACCGAAUCGGCGGCGGCGGGGAAAGUAUUAUGUUACGCCGUUCGGAUCUGCACUUCCAGC: 1.25
ACCAUGCAGGUAAACAUCUUUGGGAAGUGGGGCAAGGGGGGGAUAGGGAGGGGGGUAACACUUUGGGAACAGGUGGUCCCAGGUCGUUUC: 1.12
UGGGAGGUGGAUUUUGUUUAUUUUUUUAGCUCAUUUCCAGGGGUGGGAAUUUUUUUUUAAUAUGUGUCAUGAAUAAAGUGGUUUUUGAAA: 0.413
UGGCCCUGGUGGCAUGCGGGGAGGAAGAGGUGGCCUCAUAGAUCGUGGUGGUCCCGGUGGAAUGUUCAGAGGUGGCCGUGGUGGAGACAG: 0.252

Series 2 — target: CCND1, cyclin fold, Cln2 fusion (human); technique: yeast growth competition, sequencing; matrix: yeast; notes: weak parent motif; reference: not given; direction: higher = stronger binding; quantity: normalised enrichment score
Starting sequence: CDC6 docking peptide (human); TLKGRRLVFDNQL
G4T: -0.383
R6I: 0.943
N11V: 0.428
N11I: 0.48
G4W: 0.0196
L7P: 0.0347
K3N: 0.354
Q12C: 0.0816
L7M: 0.106
G4P: 0.483
D10I: 0.619
R5T: 0.555
N11C: 0.757
K3G: -0.153
K3R: 0.591

Series 3 — technique: RNA Bind-n-Seq; molecule type: RNA; matrix: in vitro; tested at: not given; notes: 4-mer, random 30-nt RNA, single round; together with: RocA, ADP, phosphate; reference: input library; direction: higher = stronger binding; quantity: 4-mer enrichment
Target: Eukaryotic initiation factor 4A-I (EIF4A1, Homo sapiens, UniProt P60842, residues 1-406, full length assumed)
UniProt P60842, sequence (whole entry, looked up): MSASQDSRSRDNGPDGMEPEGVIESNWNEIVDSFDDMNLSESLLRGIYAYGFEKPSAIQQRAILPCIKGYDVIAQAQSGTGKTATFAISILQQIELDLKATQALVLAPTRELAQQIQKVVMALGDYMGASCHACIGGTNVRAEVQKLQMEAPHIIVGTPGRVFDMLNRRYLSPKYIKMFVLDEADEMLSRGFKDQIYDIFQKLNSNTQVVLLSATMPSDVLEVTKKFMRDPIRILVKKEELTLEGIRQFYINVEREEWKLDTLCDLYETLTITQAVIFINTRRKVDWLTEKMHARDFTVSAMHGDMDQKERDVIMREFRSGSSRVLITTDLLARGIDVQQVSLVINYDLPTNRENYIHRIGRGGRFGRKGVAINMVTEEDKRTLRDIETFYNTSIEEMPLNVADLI
AGCG: 1.28 fold
AUCC: 0.575 fold
AUUU: 0.94 fold
UUCA: 0.637 fold
CAGC: 0.66 fold
GAGC: 2.34 fold
GUGA: 1.7 fold
UCAA: 0.716 fold
UGUC: 0.69 fold
AGUU: 1.68 fold
GGGA: 1.89 fold

Series 4 — technique: universal PBM; molecule type: double-stranded DNA, one strand shown; matrix: in vitro; tested at: not given; direction: higher = stronger binding; quantity: E-score
Target: Sal-like protein 4, full length isoform B (SALL4, Homo sapiens, UniProt Q9UJQ4-2, residues 1-616)
Notes: 8-mer, flanks averaged, mean of replicates
ACTATTAA: 0.348
AAACGCGA: 0.0219
ACTCAAAC: 0.0892
ATTTACGA: 0.28
CGTAACAC: 0.077
ACTTGGTC: -0.0931
CCCGGTAC: -0.243
ACACCCCC: -0.0983
GACAGTAA: 0.11
AGAGTGAC: -0.163
CGCGTCTA: 0.0137
GGTATAAA: 0.218
GATAGGTA: 0.207
CCATGTCA: -0.131
AAGATCGT: 0.039
TCCCATCA: 0.0777
AACCCTTA: 0.214
ACTGATTC: 0.0194
AAGGTAGC: -0.168

Series 5 — technique: competition protein-binding microarray; molecule type: double-stranded DNA, one strand shown; matrix: in vitro; tested at: 2 µM; together with: Cbf1 competitor, 0.05 µM; direction: higher = stronger binding; quantity: fluorescence intensity; constant ends, left off below: … GTCTTGATTCGCTTGACGCTGCTG
Target: Phosphate system positive regulatory protein PHO4, full length, GST-tagged (PHO4, Saccharomyces cerevisiae, UniProt P07270, residues 1-312)
Notes: whole 60-bp probe, lowest competitor level
Residues (chain): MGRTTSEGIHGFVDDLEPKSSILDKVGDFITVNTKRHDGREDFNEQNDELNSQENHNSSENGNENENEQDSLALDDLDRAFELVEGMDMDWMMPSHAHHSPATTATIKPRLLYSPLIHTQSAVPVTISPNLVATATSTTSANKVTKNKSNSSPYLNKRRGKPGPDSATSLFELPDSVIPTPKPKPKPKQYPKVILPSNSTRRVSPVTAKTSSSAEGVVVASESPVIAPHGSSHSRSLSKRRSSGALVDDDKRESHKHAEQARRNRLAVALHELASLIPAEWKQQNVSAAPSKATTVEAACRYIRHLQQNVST
TGCCCAAAGCTCTGGCACGTATGAAACTGCTTTTCG: 4870 a.u.
GACCATATCTTTGTACGCATTGTTTCCATTCAAAGA: 4500 a.u.
TGCGCAACAACTTGCCCCGTGGGTGTATGTCTAGAA: 10700 a.u.
ACGCTGAATACTTGGCAGGTATGGCTTTCAACAATG: 4350 a.u.
ATAATTGTGTACCGACACGTGCAAATTTGGTACGAA: 19900 a.u.
CTAACGAAGGTTTGTTGAGTGGGTGACAAGCCAAGT: 4080 a.u.
CGTCCTAGTGATTTTCACGTGAGCTCCATGAGGAAG: 11400 a.u.
GTCTTGTCTCATTGGCGAGTGGGTGTCCCCACTTCA: 5180 a.u.
AAACGTAGTTACGGCCACGTGGGTAAGATATGAAAG: 21100 a.u.
AAACCACAGTACTGTCACACTCTACTACCATCCAGT: 5070 a.u.
ATACCCTCAATTGGGCTCGTGTTGAGCAAGTTAAAC: 10300 a.u.
AGGGTTACCATTAAAAAGCGTCCCAGAAAAGGTGGA: 2590 a.u.
CTTTGCCGAACCCATCACGGCATAACCTGCAGAATA: 3910 a.u.
GATTGACCAATTCGGCACGTGTATATTTCGTTGACC: 14300 a.u.
AAATTACTAAGTTGTGCTGTGGGTGACGCCGTATGA: 5330 a.u.
AAGATCCGGATCAAGACCGTGATGGCCAGCGCGATA: 4900 a.u.
GTCTTGTCTCATTGCTCCGTGGGTGTCCCCACTTCA: 5800 a.u.
ATTCAAGCCGGTGAACATGTGGAGGTTAACGGTTCC: 9300 a.u.

Series 6 — technique: protein binding microarray; molecule type: double-stranded DNA, one strand shown; matrix: in vitro; tested at: not given; reference: not given; direction: higher = stronger binding; quantity: E-score
Target: Histone acetyltransferase KAT6A, winged helix 1, GST fusion (KAT6A, Homo sapiens, UniProt Q92794, residues 1-85)
Notes: 8-mer, flanks averaged, mean of 2 arrays, mostly near background
Target sequence (chain): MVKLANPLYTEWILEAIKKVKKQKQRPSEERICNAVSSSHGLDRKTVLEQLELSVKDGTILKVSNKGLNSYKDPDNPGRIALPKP
GTGGAAAC: -0.187
AACCATCT: -0.0638
ATACCACC: -0.074
AAGTTTCG: -0.0391
ACGTCCCA: -0.216
AGACAGTA: -0.216
CCTATAGC: 0.107
ACTCGCCT: 0.0282
ACGGTCTC: 0.229
TTAAAGAA: -0.0921
CTAAGATA: -0.146
ACACCGCA: -0.0127
CGCAACCG: 0.329
CAAGCCCA: -0.245
ATCGCTGG: 0.0115
TCATTCGA: -0.265
AGAGCCAA: -0.192
ATCGCTTA: 0.0228
GTACGTTA: 0.0807
CTCTGTTC: -0.26
ACAACCAC: -0.116
CCTCTGTA: -0.0257
TAATAGGA: -0.00268
GCTCATCC: -0.039
CGCGCTAG: 0.355

Series 7 — technique: aptamer microarray, sandwich; molecule type: DNA with 2'F-ANA; matrix: in vitro; tested at: 200 nM; together with: Cy3 exosite-II aptamer, 400 nM; direction: higher = stronger binding; quantity: mean fluorescence intensity; sequence: GGTTGGTGTGGTTGG
Target: Prothrombin, mature alpha-thrombin (F2, Homo sapiens, UniProt P00734)
Notes: whole 15-mer aptamer, many near background
2'F-ANA at 1 3 4 5 6 7 8 9 11 15: 70.2 a.u.
2'F-ANA at 2 4 5 6 7 8 9 12 14: 84.4 a.u.
2'F-ANA at 3 5 6 7 8 9 11 12 14 15: 86.8 a.u.
2'F-ANA at 2 4 5 6 7 9 10 12 13 14 15: 51.5 a.u.
2'F-ANA at 5 13 14 15: 59.4 a.u.
2'F-ANA at 1 2 4 6 7 10 11 12 14 15: 46.5 a.u.
2'F-ANA at 2 3 8 10 12 13: 455 a.u.
2'F-ANA at 2 6 7 8 9 10 12 14 15: 112 a.u.
2'F-ANA at 3 4 6 10 12 14: 186 a.u.
2'F-ANA at 2 4 8 10 12 13 14: 80.5 a.u.
2'F-ANA at 2 3 4 5 6 7 9 11 14: 50.3 a.u.
2'F-ANA at 3 6 10 11 14: 371 a.u.
2'F-ANA at 2 3 4 5 6 7 9 10 11 14 15: 52.3 a.u.
2'F-ANA at 1 3 4 5 6 10 12 13 15: 289 a.u.
2'F-ANA at 2 3 4 6 8 9 11 14: 227 a.u.
2'F-ANA at 2 4 5 6 8 9 13 15: 52.7 a.u.
2'F-ANA at 1 4 5 7 13 14 15: 74.2 a.u.
2'F-ANA at 5 9 13 15: 49.7 a.u.
2'F-ANA at 1 3 4 6 7 9 10 11 12 13 14: 52.2 a.u.
2'F-ANA at 4 5 9 11 12 13 15: 72.2 a.u.
2'F-ANA at 1 2 5 6 7 10 14 15: 47.7 a.u.
2'F-ANA at 1 2 3 5 6 7 9 10 13 14 15: 53.2 a.u.
2'F-ANA at 1 2 9 10 11 12 13 15: 69.3 a.u.
2'F-ANA at 1 2 3 5 6 7 8 10 11 14 15: 47 a.u.
2'F-ANA at 1 2 5 6 9 13 15: 47.4 a.u.
